Published values collected from several papers.
Protocols differ between the studies behind these lines.
MAPK3: Mitogen-activated protein kinase 3 (MAPK3, Homo sapiens, UniProt P27361)
MAPK3 with MyD88: Mitogen-activated protein kinase 3, with MyD88 (MAPK3, Homo sapiens, UniProt P27361)

Structure (SMILES) | target | assay | system | conditions | scale | measurement | result
COc1c(Cl)cccc1Nc1c(-c2ccncc2C#C[C@@]2(C)CCCN2C(=O)/C=C/CN(C)C)[nH]c2c1C(=O)NCC2 | MAPK3 | binding, competition with immobilised ligand | – | 3 µM | – | remaining binding | 100%
Cc1cccc(-c2ccc3nc(NC(=O)C4CCOCC4)nn3c2)c1 | MAPK3 | enzyme activity, Dundee kinase panel | – | 10 µM | – | remaining activity | 92%
CCn1cc(C(=O)O)c(=O)c2c(N)c(F)c(NC3CCCCC3)cc21 | MAPK3 | kinase activity | – | 0.1 µM, added: ATP at Km | – | inhibition | 5.9%
C=CC(=O)Nc1cccc(-c2cnc3[nH]cc(C(=O)NC(C)(C)C)c3n2)c1 | MAPK3 | enzyme activity, inhibitor | – | 0.1 µM | – | inhibition | 2%
CC(=O)N1c2ccc(-c3ccc(CNC(=O)c4cn5cc(-c6cnc(N)nc6)nc(N6CCOCC6)c5n4)cc3)cc2CC[C@@H]1C | MAPK3 | KINOMEscan | – | 10 µM | – | remaining binding | 99%
CN(C)c1ccc(-c2nc3cc(C(=O)Nc4ccc(O)nc4)ccc3[nH]2)cc1 | MAPK3 with MyD88 | ERK1-MYD88 interaction, HTRF | – | concentration not given | – | inhibition | 26.5%
CN1CCN(Cc2ccc(NC(=O)c3cccc(C#Cc4cnc(N)c5ncccc45)c3)cc2C(F)(F)F)CC1 | MAPK3 | cell-free assay, competition with immobilised ligand | – | 0.5 µM | – | remaining binding | 100%
C=CC(=O)N1CCc2ccc(-n3c(=O)ccc4cnc5ccc(-c6cnn(C)c6)cc5c43)cc21 | MAPK3 | KINOMEscan | – | 1 µM | reference: DMSO control | remaining binding | 100%
Cc1cccc(O[C@H]2CCC[C@@H](C(C)CNCc3ccncc3)C2)c1 (relative stereo) | MAPK3 | enzyme activity, inhibitor | – | 1 µM | – | inhibition | -3%
CS(=O)(=O)Nc1cccc(-c2csc3cnc(Nc4ccc(N5CCN(CCCCCOc6cccc7c6C(=O)N(C6CCC(=O)NC6=O)C7=O)CC5)cc4)nc23)c1 (stereo not shown) | MAPK3 | probe labelling, inhibitor, KiNativ chemoproteomics | MOLT-4 | 1 µM | – | inhibition | -19.6%
Cc1cccc(-c2ccc3nc(NC(=O)C4CCCO4)nn3c2)c1 (stereo not shown) | MAPK3 | enzyme activity, Dundee kinase panel | – | 10 µM | – | remaining activity | 97%
CN1CCN(Cc2ccc(-c3ccc(CO[C@H]4CCC[C@@H]4NC(=O)c4cc(-c5cnn(C)c5)cnc4N)cc3)cc2)CC1 | MAPK3 | enzyme activity, inhibitor | – | 0.1 µM | – | inhibition | 4%
C=CC(=O)N1Cc2nc(-c3cc(-c4cc(Cl)cnc4Cl)c(F)cc3F)n(-c3ccncn3)c2C1 | MAPK3 | cell-free assay, inhibitor | – | 1 µM | – | inhibition | 3.2%
COc1cc(Nc2nccc(-c3cnn4nc(OC)ccc34)n2)cc(C(F)(F)F)c1 | MAPK3 | binding, competition with immobilised ligand | – | 1 µM | – | remaining binding | 99%
NC(=O)[C@@H](O)C[C@H]1CCc2sc3ncnc(O[C@H]4CC[C@H](N5CCOCC5)CC4)c3c21 | MAPK3 | enzyme activity, inhibitor | – | 10 µM | – | inhibition | 4%
Nc1ncc2c(n1)-c1c([nH]c3ccc(C4=CCOCC4)cc13)CCC2 | MAPK3 | binding, competition with immobilised ligand | – | 1 µM | – | remaining binding | 100%
CCN1CCN(Cc2ccc(C(=O)Nc3ccc(C)c(NCc4cnc5[nH]ccc5c4OC)c3)cc2C(F)(F)F)CC1 | MAPK3 | binding, competition with immobilised ligand | – | 1 µM | – | remaining binding | 100%
Cc1ccc(-c2c(/C=C(\C#N)C(=O)NC(C)C)n(CCCO)c3ncnc(N)c23)cc1 | MAPK3 | cell-free assay, competition with immobilised ligand | – | 1 µM | – | remaining binding | 100%
COc1ccc(NC(=O)c2ccc3[nH]c(-c4ccc(N(C)C)cc4)nc3c2)cn1 | MAPK3 with MyD88 | ERK1-MYD88 interaction, HTRF | – | concentration not given | – | inhibition | 84%

Excerpt of the above:
Structure (SMILES) | target | assay | system | conditions | scale | measurement | result
NC(=O)[C@@H](O)C[C@H]1CCc2sc3ncnc(O[C@H]4CC[C@H](N5CCOCC5)CC4)c3c21 | MAPK3 | enzyme activity, inhibitor | – | 10 µM | – | inhibition | 4%
Nc1ncc2c(n1)-c1c([nH]c3ccc(C4=CCOCC4)cc13)CCC2 | MAPK3 | binding, competition with immobilised ligand | – | 1 µM | – | remaining binding | 100%
